# Assay results gathered from unrelated publications.
# Each numbered part is a random draw from the data of one study; scales do not carry over between parts.

# Study 1
# Target: Fragile X messenger ribonucleoprotein 1, C-terminal low-complexity region (Fmr1, Mus musculus, UniProt P35922)
# Method: RNA Bind-n-Seq
# Form: RNA
# Medium: in vitro
# Tested at: 200 nM
# Notes: whole 134-nt RNA, ends assumed
# Together with: 150 mM LiCl
# Relative to: input library
# Direction: higher = stronger binding
# Library: 7-deaza-guanosine replaces G
# Shared flanks, not repeated: GGGAGUUCUACAGUCCGACGAUC … UGGAAUUCUCGGGUGUCAAGG
Sequence,log2 enrichment
UCCUGUGCUACACAUCGUAUGUACCGAAUCGGGAAAAAGGGAAAAAAAGGGUUUUUGGGAAAGUAUUAUGUUACGCCGUUCGGAUCUGCA,-1.44
AAGUCCUGUGCUACACAUCGUAUGUACCGAAUCGGAAAAGGGAAAAGGGGAAAAGGAAAGUAUUAUGUUACGCCGUUCGGAUCUGCACUU,-0.525
GCAGGAAGUAAAAACAAAUGGAAAUGCUUCGGAUAGUGGCAGGGGUGGGGGUUGCUAAGGAAAGGGUGGGAAAAGAGUGGGUAAAGAGUU,1.53
UAACUUUAGAGGAGGAUCCGAUGGAUAUGGCAGUGGACGUGGAUUUGGGGAUGGCUAUAAUGGGUAUGGAGGAGGACCUGGAGGUGGCAA,0.435
UGGCCCUGGUGGCAUGCGGGGAGGAAGAGGUGGCCUCAUGGAUCGUGGUUGUCCCGGUGGAAUGUUCAGAGGUGGCCGUGGUGGAGACAG,-0.000937
CUUAUGCCUUCCCCACUGGUAUUGAGGGUUUUGAUAAUAAAUUGGUAGGAAAAAAAAGUACCUCCUAGAAGGAAGCCUUCCCCACCAUUU,1.39
CCUGUGCUACACAUCGUAUGUACCGAAUCGGGGAAAAAAAGGGGUGGGGUUUUUUUGGGGAAAGUAUUAUGUUACGCCGUUCGGAUCUGC,-1.44
AGUCCUGUGCUACACAUCGUAUGUACCGAAUCGGGUUUUUGGGUGGGAAAAAAAGGGAAAGUAUUAUGUUACGCCGUUCGGAUCUGCACU,-1.8

# Study 2
# Target: RNA binding protein fox-1 homolog 2, RRM domain, GST-SBP tag (RBFOX2, Homo sapiens, UniProt O43251-10, residues 100-194)
# Method: RNA Bind-n-Seq
# Form: RNA
# Medium: in vitro
# Tested at: 365 nM
# Notes: natural RNA segment, single round, ends assumed
# Relative to: no-protein control
# Direction: higher = stronger binding
# Shared flanks, not repeated: GGGAGUUCUACAGUCCGACGAUC … UGGAAUUCUCGGGUGCCAA
# Residues (chain): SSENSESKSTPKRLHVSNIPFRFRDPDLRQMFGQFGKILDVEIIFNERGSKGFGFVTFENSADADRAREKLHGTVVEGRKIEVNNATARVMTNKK
Sequence,RBNS enrichment (R)
GCUCUUCAAGAAUACAACAACUAAGAAAAGGAAGUUUCCAGAAAAGAAGUUAACAUGAACUCUUGAAGUCACACCAGGGCAACUCUUGGAAGAAAUAUAUUUGCAUAUUG,0.274
UGAAGAUGAUAUACUAUUUUUGUUAAGCGUGUCUGUAUUUAUGUGUGAGGAGCUGCUGGCUUGCAGUGCGCGUGCACGUGGAGAGCUGGUGCCCGGAGAUUGGACGGCCU,1.71
CAGCCUCGUCUGGAAAAAGGACCAGGGGUCCCGGAGGAACCCAUUUGUGCUCUGCUUGGACAGCAGGCCUGGCACUGGGAGGUGGGGGUGAGCCCCUCACAGCCUUGCCC,0.362
UAAAUGCCUCAGAUGCCCGGGAGGGCCUCUGGUGCCACUGCAUAGUAUAUACUAACAUCAUUCUGCCAAGGUAGGAAGCCCCUGACCCCCAAGCAGUGGUGCCACUCUUC,0.657
AUCACAGCACAAGUGGCUGCAGCCUCCGCGGGGAACCAGGCGGGAGGGACUGAGUGGCCCGCGGGCCCCAGUGAGGCACUUUGUCCCGCCCAGCGCUGGCCAGCCCCGAG,0.626
AGAGCUCAUGUUCAUGUUUUAGAAGCCCUUUCUUUCUAGGUGUCUCUCAAAAGACUGGCUUAAUUGGAAUAAAAUAGCUUUUUUUUUUUAAGUGUCCCAAAGAUAAGAUA,0.658
UACCCCACCUUCCCACACUGUGAGCUAAUGAUGUGUGGUUUCUCUGCACAUAAGUAAAUGUCUUCACGUCAGUGCGUCCGUGGAAAUUGUGAUCUGUUGUAAUAUCAGUU,0.252
UGCAGUGAUACCAACUUAUAGCAAUGAUGUACUUUAAGGGAACUACCCAACUAUGUUGUGAUAGAAGAAAGAGAAACCUUCACUUUGGCAUUUUUUUUUAAUCACUGUUU,0.513

# Study 3
# Target: Histone acetyltransferase KAT6A, both winged helices, GST fusion (KAT6A, Homo sapiens, UniProt Q92794, residues 1-181)
# Method: protein binding microarray
# Form: double-stranded DNA, one strand shown
# Medium: in vitro
# Tested at: not given
# Notes: 8-mer, flanks averaged, mean of 2 arrays, mostly near background
# Relative to: not given
# Direction: higher = stronger binding
# Target sequence (chain): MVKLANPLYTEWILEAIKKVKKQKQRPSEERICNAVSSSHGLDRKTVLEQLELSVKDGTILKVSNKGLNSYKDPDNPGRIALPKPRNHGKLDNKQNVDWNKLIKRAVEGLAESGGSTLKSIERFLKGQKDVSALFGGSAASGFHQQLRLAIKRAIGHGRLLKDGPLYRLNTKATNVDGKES
Sequence,E-score
GCGGTCCC,0.195
AACTATAA,-0.0795
CGCGGCGA,0.371
AAACGCAG,0.134
CGCGGGAG,0.29
CAGAACAC,-0.0746
GAGGGCCA,-0.165
AGCGTTGC,0.133
CAACCGAG,-0.0175
AGGTTGAA,-0.0267
AGAGTTAC,-0.101
AGTATTAC,-0.0667
ACAAGTGA,-0.011
GCATCGCC,0.216
AGGGACGC,-0.0245
GAATACCA,-0.133
ACCAGACG,-0.105
GCTCAAAA,0.0486
ATACGAGC,-0.024
TAAAGGAA,-0.106

# Study 4
# Target: Phosphate system positive regulatory protein PHO4, full length, GST-tagged (PHO4, Saccharomyces cerevisiae, UniProt P07270, residues 1-312)
# Method: competition protein-binding microarray
# Form: double-stranded DNA, one strand shown
# Medium: in vitro
# Tested at: 2 µM
# Notes: whole 60-bp probe, lowest competitor level
# Together with: Cbf1 competitor, 0.05 µM
# Direction: higher = stronger binding
# Shared flanks, not repeated: … GTCTTGATTCGCTTGACGCTGCTG
# Target sequence (chain): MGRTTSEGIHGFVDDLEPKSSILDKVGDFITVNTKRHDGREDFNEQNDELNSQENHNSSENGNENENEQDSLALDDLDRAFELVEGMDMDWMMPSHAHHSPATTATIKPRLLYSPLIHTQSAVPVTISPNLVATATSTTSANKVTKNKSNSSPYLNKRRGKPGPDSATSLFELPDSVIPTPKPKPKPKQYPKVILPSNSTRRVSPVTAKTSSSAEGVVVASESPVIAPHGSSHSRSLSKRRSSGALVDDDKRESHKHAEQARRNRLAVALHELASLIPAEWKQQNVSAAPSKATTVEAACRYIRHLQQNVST
Sequence,fluorescence intensity [a.u.]
CGTCCTAGTGATTGTCACTTCACTTCCATGAGGAAG,4620
TGCGCAACAACTTGTTAAGTGGGTGTATGTCTAGAA,4480
CGTCCTAGTGATTGCCTGGTGGGTGCCATGAGGAAG,7390
ATTCTCTATTTGTATCGCATGCGCGGTCGCTGTTCT,8370
TACAATGTCGAGCCTCTCGTGGGTAATCTGGAACAG,8210
AAGAAGATTTACTCTCCCGTGATGGCGGGCCAATCA,3780
TATACCTTTGTTCGTCACGTGAACCAACAGAACATG,14100
GGCCCAATGGAGCGTCACACTTTTAAACTTTCTAAA,3940
TTCGGGTATCTTGTTTATGTGACGCTCTGACCCAGA,3040
TGCAAATATCGAAAGCACGTTTTTACTCAGCCCGTC,15500
CTTCTGTAAATTTGAGGAGTGGGTGGACGCGCCCCG,4160
AATATCCTCAACCTACACGTCTTCACCATCAGTACC,5790
GTCTTGTCTCATTGCCCTGTGGGTGTCCCCACTTCA,4950
AAAGCGGTAATTTGTCACCTGACTTCACATATCTAT,3820
TTATCTCAGTGGGTTTACGTGGGTATAGATTACGCT,5200
CGGTGATAGCGGTTTCACGTGTGTTGATTGTGGTAC,11500

# A few entries again (study 4):
Sequence,fluorescence intensity [a.u.]
ATTCTCTATTTGTATCGCATGCGCGGTCGCTGTTCT,8370
TACAATGTCGAGCCTCTCGTGGGTAATCTGGAACAG,8210
AAGAAGATTTACTCTCCCGTGATGGCGGGCCAATCA,3780
TATACCTTTGTTCGTCACGTGAACCAACAGAACATG,14100
GGCCCAATGGAGCGTCACACTTTTAAACTTTCTAAA,3940
TTCGGGTATCTTGTTTATGTGACGCTCTGACCCAGA,3040
TGCAAATATCGAAAGCACGTTTTTACTCAGCCCGTC,15500
CTTCTGTAAATTTGAGGAGTGGGTGGACGCGCCCCG,4160
